Measurements gathered from unrelated publications.
Each line is one published result; not all experiments were run side by side. ± marks the error that the study gave.
Oprd1: Delta-type opioid receptor (Oprd1, Rattus norvegicus, UniProt P33533)
UniProt P33533, sequence (whole entry, looked up): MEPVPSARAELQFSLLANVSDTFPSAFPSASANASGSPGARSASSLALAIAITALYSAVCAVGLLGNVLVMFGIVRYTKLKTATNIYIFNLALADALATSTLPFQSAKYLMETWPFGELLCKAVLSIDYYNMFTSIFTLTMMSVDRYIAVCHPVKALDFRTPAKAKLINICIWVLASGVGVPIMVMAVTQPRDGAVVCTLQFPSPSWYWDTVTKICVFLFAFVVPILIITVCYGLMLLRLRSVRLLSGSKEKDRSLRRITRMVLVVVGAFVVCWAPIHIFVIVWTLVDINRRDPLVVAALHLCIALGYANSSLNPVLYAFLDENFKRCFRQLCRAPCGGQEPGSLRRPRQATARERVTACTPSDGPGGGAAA
HTR1A: 5-hydroxytryptamine receptor 1A (HTR1A, Homo sapiens, UniProt P08908)
UniProt P08908, sequence (whole entry, looked up): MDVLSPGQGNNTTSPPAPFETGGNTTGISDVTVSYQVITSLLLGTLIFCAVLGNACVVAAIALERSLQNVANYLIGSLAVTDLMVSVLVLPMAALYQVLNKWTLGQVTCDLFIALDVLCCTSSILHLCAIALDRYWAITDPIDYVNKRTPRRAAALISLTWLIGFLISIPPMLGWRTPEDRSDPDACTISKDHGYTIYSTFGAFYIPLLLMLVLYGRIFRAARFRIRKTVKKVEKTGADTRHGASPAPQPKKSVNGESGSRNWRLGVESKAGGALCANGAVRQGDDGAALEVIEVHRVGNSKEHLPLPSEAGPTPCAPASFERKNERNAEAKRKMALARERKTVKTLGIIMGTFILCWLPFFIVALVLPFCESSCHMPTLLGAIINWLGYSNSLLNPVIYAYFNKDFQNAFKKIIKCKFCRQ
UniProt P08588, sequence (whole entry, looked up): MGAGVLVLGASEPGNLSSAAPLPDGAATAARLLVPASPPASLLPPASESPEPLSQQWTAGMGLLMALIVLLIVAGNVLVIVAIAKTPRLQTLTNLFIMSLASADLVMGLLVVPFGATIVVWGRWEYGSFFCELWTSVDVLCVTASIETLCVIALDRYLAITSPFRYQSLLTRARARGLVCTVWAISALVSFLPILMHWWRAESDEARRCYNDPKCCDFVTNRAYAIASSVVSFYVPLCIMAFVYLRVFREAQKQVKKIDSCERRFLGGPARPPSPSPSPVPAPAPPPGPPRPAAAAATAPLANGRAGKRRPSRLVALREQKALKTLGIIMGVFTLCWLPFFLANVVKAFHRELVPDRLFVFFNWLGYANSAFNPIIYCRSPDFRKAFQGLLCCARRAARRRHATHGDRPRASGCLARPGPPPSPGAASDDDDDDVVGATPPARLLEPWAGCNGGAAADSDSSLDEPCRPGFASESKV
UniProt P50406, sequence (whole entry, looked up): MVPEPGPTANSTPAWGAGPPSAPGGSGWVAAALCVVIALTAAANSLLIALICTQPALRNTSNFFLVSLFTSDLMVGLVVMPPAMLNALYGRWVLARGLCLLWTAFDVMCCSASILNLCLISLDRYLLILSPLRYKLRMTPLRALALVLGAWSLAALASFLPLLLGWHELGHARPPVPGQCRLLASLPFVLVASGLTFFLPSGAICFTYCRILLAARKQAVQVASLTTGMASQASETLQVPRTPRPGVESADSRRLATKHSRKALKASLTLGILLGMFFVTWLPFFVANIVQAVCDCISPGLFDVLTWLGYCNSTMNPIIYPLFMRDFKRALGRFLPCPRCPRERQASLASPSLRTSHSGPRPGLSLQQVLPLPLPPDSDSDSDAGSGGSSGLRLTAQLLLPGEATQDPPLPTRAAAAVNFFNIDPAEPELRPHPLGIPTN

COc1cc2c(cc1O)C(CCc1ccc(Cl)cc1)N(C)CC2 (stereo not drawn)
Ki (HTR6 (Homo sapiens, UniProt P50406); cell-free assay, radioligand): 1900 nM

NC(=O)[C@@H]1CC/C=C/C[C@@H](NC(=O)[C@@H](N)Cc2ccc(O)cc2)C(=O)N[C@@H](Cc2ccccc2)C(=O)N[C@@H](Cc2ccccc2)C(=O)N1
Ki (Oprd1; ligand displacement, radioligand; cell membranes): 1.53 nM

O=C1NC2(CC2)COc2ncc(F)cc2[C@H]2COCCN2c2ccn3ncc1c3n2
organ-to-body weight ratio (Sprague-Dawley rat, male, kidneys; oral, 2.5 mg/kg/day, 4 weeks dosing, end of recovery): 0.637 ± 0.07%

CN(C)[C@H](CNC(=O)/C=C/c1cccc2ccccc12)Cc1ccc(O)cc1
Ki (HTR1A; cell-free assay): 10000 nM

N=C(N)NCCC[C@@H]1NC(=O)[C@@H](Cc2ccc(O)cc2)NC(=O)[C@@H](CCCCN)NC(=O)[C@@H](Cc2ccccc2)NC1=O
Ki (Oprd1; ligand displacement, radioligand; cell membranes): 2490 nM

C[C@@H](Cc1ccsc1)NC(=O)NC[C@H](Cc1ccc(O)cc1)N(C)C
Ki (ADRB1 (Homo sapiens, UniProt P08588); cell-free assay): > 50000 nM

CC[C@@H]1NC(=O)[C@H](CCCNC(=N)N)NC(=O)[C@H](NC(=O)C(C)C)CCNC(=O)c2cc(F)c(c(F)c2)N=Nc2c(F)cc(cc2F)C(=O)NCCNC(=O)[C@@H](Cc2ccccc2)NC1=O
Ki (WDR5 (Homo sapiens, UniProt P61964); binding, inhibitor, competitive fluorescence polarization; cis isomer, 520 nm photostationary state): 8 nM

Cc1cc(O)cc(C)c1C[C@H](N)C(=O)N[C@@H]1C/C=C\CC[C@@H](C(N)=O)NC(=O)[C@H](Cc2ccccc2)NC(=O)[C@H](Cc2ccccc2)NC1=O
Ki (Oprd1; ligand displacement, radioligand; cell membranes): 0.491 nM

O=C1c2ccccc2CCCN1CCCCN1CCN(c2cccc(Cl)c2Cl)CC1
Ki (HTR1A; ligand displacement, radioligand): 1.3 nM

Repeated from above:
COc1cc2c(cc1O)C(CCc1ccc(Cl)cc1)N(C)CC2 (stereo not drawn)
Ki (HTR6 (Homo sapiens, UniProt P50406); cell-free assay, radioligand): 1900 nM
